Measurements gathered from unrelated publications.
Compare with care: the assays were run in different laboratories. Several values in a cell are separate wells, animals, samples, runs or records. ± gives the spread as reported.

SMILES	cell line	test	setting	scale	measurement	value
CNS(=O)(=O)Nc1nccc(Cc2c(C)c3ccc(Oc4ncccc4F)cc3oc2=O)c1F	NCI-H1993	cell viability	7 days		IC50	727 nM
CN1CCN(Cc2ccc(C(=O)Nc3ccc4c(/C=C/c5ccccn5)n[nH]c4c3)cc2)CC1	BaF3	cell growth or viability, CCK-8			GI50	590 nM
O=S(=O)(N[C@H]1CCO[C@@H](C2c3ccc(F)cc3CCc3cc(F)ccc32)C1)c1ccc(OC(F)(F)F)cc1	D425	immunoblot, item: Bad	concentration not given, 24 h		phosphorylation level	decreased
O=c1cc(NCCCO)c2ccccc2o1	COS-7 (untransfected)		500 µM, unit not given	reference: 3 µM ionomycin	calcium mobilisation signal	0.94 ± 0.35
CC(=O)N[C@@H](CC(=O)O)C(=O)N[C@@H](C)C(=O)N[C@@H](Cc1ccc(N)cc1)C(=O)N[C@@H](CC(=O)O)C(=O)COC(=O)c1c(C)cccc1C	THP-1 cells, LPS-primed	pyroptosis, LDH release	25 µM, LPS 1 µg/mL, 4 h, together with: nigericin 5 µM, 2 h		cell lysis	85.4%
CN(C)CCN1CCN(c2ccc3nc(-c4ccc5nc(-c6ccc(C(F)(F)F)cc6)[nH]c5c4)[nH]c3c2)CC1	SK-MEL-2	SRB	10 µM, 48 h		growth percent	52%
Cc1ncsc1-c1ccc(C(C)NC(=O)C2CC(O)CN2C(=O)C(NC(=O)CCCCCCCCCCN2CCCC(Nc3ncc(Cl)c(Nc4ccccc4S(=O)(=O)C(C)C)n3)C2)C(C)(C)C)cc1 (stereo not drawn)	22Rv1	RNA-seq, item: TNRC6C mRNA	concentration not given	reference: DMSO	log2 fold change	-1.55
CCC(=CCc1c(O)cc2c(c1O)C(=O)CC(c1ccc(OC)cc1O)O2)CC (stereo not drawn)	HeLa	cell growth or viability, MTT	50 µM, 48 h		inhibition	96.1%
[BH3-][P+]1(c2ccccc2)CCCCC1	HaCaT	ELISA	IC50, 72 h		IL-6 level	12.9 ± 0.84 pg/mL
C=CC(=O)N1CCCC(n2c(=O)c3ncccc3n(Cc3ccc(Oc4ccccc4)cc3)c2=O)C1 (stereo not drawn)	OCI-LY19	annexin V/PI flow cytometry	500 nM, 72 h		late apoptotic cells	34.4%
CC12CCCC(NC(=O)c3ccc([N+](=O)[O-])cc3)(C1)C1CC(C)(C)C1CC2 (stereo not drawn)	HT-29	cell growth or viability, CCK-8	10 µM		inhibition	< 50%
C[C@@H]1CC[C@@H]([C@](O)(CNCc2ccccc2F)COCc2ccccc2)[C@H](OCc2ccccc2)C1	A2780	cell growth or viability, MTT	10 µM, 72 h		inhibition	99%
N#C[C@@H]1CC(F)(F)CN1C(=O)CNC(=O)c1ccnc2ccc(OCCCN3CCN(C(=O)CCc4ccc5c(c4)CN4CCN(Cc6cc(CCC(=O)O)ccc6O)CC(=O)[O][Al-]([18F])([O]C(=O)C4)[O]5)CC3)cc12 (stereo partly drawn)	HT1080 cells expressing human FAP		60 min, 37 °C		internalized fraction	86.4 ± 1.1%
CN1CCCNC(=O)c2cccc(c2)C(=O)NCCCN(C)CCCNc2cccc3c2C(=O)c2cccc(c2C3=O)NCCC1	SAS	RNA-Seq, item: PRPSAP1 mRNA	1 µM, 6 h	reference: untreated cells	log2 fold change	-0.86
O=S(=O)(Nc1ccc(OC(F)(F)F)cc1)N1CCCC(C2c3ccccc3CCc3ccccc32)C1 (stereo not drawn)	D425	Transwell	1.5 µM, 24 h		cell migration	decreased
CCN(C(=O)c1cc(F)ccc1Oc1nncnc1N1CCC2(C1)CN([C@H](CCCN(C)CCOC)C(C)C)C2)C(C)C	LoVo	cell growth or viability	72 h		GI50	> 10000 nM
CC(=O)N[C@@H](CC(=O)O)C(=O)N[C@@H](CCCC(=O)O)C(=O)N[C@@H](CC(C)C)C(=O)N[C@@H](CC(=O)O)C(=O)COC(=O)c1c(C)cccc1C	THP-1 cells, LPS-primed	pyroptosis, LDH release	25 µM, LPS 1 µg/mL, 4 h, together with: nigericin 5 µM, 2 h		cell lysis	43.1% and 32%
CCC(=CCc1c(O)cc2c(c1O)C(=O)CC(c1ccc(O)c(OC)c1)O2)CC (stereo not drawn)	HeLa	cell growth or viability, MTT	50 µM, 48 h		inhibition	91.8%

Repeated from above:
SMILES	cell line	test	setting	scale	measurement	value
CCC(=CCc1c(O)cc2c(c1O)C(=O)CC(c1ccc(OC)cc1O)O2)CC (stereo not drawn)	HeLa	cell growth or viability, MTT	50 µM, 48 h		inhibition	96.1%
